Results pooled from the literature.
Lines come from different studies, so protocols differ. ± marks the error that the study gave.

| SMILES | organism | test | test system | conditions | measurement | result |
| --- | --- | --- | --- | --- | --- | --- |
| NC(Cc1cc(O)c(O)cc1O)C(=O)O (racemic) | Trypanosoma brucei | viability, flow cytometry | bloodstream form | 24 h | EC50 | > 25 µM |
| Clc1ccc(Cn2c(-c3ccc(Cl)cc3)nc3ccccc32)cc1 | Artemia salina |  |  | 24 h | LC50 | 21.9 µg/mL |
| CCOP(=S)(OCC)Oc1nc(Cl)c(Cl)cc1Cl | Daphnia magna |  | neonates under 24 h | 48 h | LC50 | 0.00292 µM |
| COc1ccc(Cn2c(-c3ccc(OC)cc3)nc3ccccc32)cc1 | Artemia salina |  |  | 24 h | LC50 | 36 µg/mL |
| CCOP(=S)(OCC)Oc1ccc([N+](=O)[O-])cc1 | Daphnia magna |  | neonates under 24 h old | 48 h | LC50 | 0.012 µM |
| Oc1ccc(Cn2c(-c3ccc(O)cc3)nc3ccccc32)cc1 | Artemia salina |  |  | 24 h | LC50 | 116 µg/mL |
| O=c1c2ccccc2[se]n1-c1ccccc1 | Trypanosoma brucei | cell viability, flow cytometry, PI | bloodstream form | 24 h | EC50 | 8.9 ± 0.7 µM |
| CCCC(CCC)C(=O)Nc1ccccc1O | Artemia franciscana | body length | larvae | 24 and 48 h, 0.17% DMSO | lowest effective concentration | 0.56 mM |
| CCCCCCCCCN(C)C | Oncorhynchus mykiss | liver S9 substrate depletion | rainbow trout liver S9 | tested individually | intrinsic clearance in vitro | 2.14 mL/h/mg S9 protein |
| C/C(=N\C#N)N(C)Cc1ccc(Cl)nc1 | Folsomia candida | survival, OECD 232 | LUFA 2.2 soil | 28 days | LC50 | 0.12 mg/kg dry soil |
| CCCCCCCCCCCCCN(C)C | Oncorhynchus mykiss | liver S9 substrate depletion | rainbow trout liver S9 | tested individually | intrinsic clearance in vivo | 189 mL/h/g liver |
| CC(C)(c1ccc(O)cc1)c1ccc(O)cc1 | Daphnia magna |  | neonates under 24 h | 48 h | LC50 | 66.5 µM |
| CCCCCCCCCCCCN(C)C | Oncorhynchus mykiss | liver S9 substrate depletion | pooled rainbow trout liver S9 | pH 7.8, tested individually | intrinsic clearance in vivo | 288 mL/h/g liver |
| CNC(=O)c1cc(Cl)cc(C)c1NC(=O)c1cc(Br)nn1-c1ncccc1Cl | Apis mellifera | acute contact toxicity | female worker bees | topical, 2 µg/bee, 48 h, with: propiconazole 10 µg/bee 1 h before | mortality | 100% |

For quick reference, copied from above:
| SMILES | organism | test | test system | conditions | measurement | result |
| --- | --- | --- | --- | --- | --- | --- |
| COc1ccc(Cn2c(-c3ccc(OC)cc3)nc3ccccc32)cc1 | Artemia salina |  |  | 24 h | LC50 | 36 µg/mL |
